Experimental data from different studies.
Numbered parts are unrelated; each lists some results of a single study.
UniProt Q92985, sequence (whole entry, unmodified, looked up): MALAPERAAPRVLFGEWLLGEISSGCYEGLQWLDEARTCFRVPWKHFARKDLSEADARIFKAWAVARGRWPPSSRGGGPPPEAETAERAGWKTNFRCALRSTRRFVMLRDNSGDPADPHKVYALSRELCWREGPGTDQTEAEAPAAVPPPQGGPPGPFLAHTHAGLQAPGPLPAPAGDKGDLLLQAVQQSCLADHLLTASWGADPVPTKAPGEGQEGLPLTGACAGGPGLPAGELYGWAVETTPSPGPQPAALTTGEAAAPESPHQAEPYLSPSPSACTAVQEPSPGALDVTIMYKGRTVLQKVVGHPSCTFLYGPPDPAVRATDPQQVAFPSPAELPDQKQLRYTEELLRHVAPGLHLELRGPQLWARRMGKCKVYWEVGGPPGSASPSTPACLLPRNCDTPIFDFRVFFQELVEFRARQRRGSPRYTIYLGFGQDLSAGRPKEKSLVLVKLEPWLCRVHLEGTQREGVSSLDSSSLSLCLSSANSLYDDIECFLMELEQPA

Sample 1
Target: Histone acetyltransferase KAT6A, winged helix 2, GST fusion (KAT6A, Homo sapiens, UniProt Q92794, residues 85-181)
Method: protein binding microarray
Form: double-stranded DNA, one strand shown
Matrix: in vitro
Tested at: not given
Notes: 8-mer, flanks averaged, mean of 2 arrays, mostly near background
Reference: not given
Reading: higher = stronger binding
Measurement: E-score
Residues (chain): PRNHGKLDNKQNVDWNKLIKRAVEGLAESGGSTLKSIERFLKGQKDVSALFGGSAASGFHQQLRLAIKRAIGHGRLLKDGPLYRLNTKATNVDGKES
CGGGTCTC: -0.0199
AGATGCTG: -0.167
AGTCCATG: -0.242
CCTTCCAC: -0.13
CCTAGCCG: 0.0374

Sample 2
Target: Sal-like protein 4, full length isoform B (SALL4, Homo sapiens, UniProt Q9UJQ4-2, residues 1-616)
Method: universal PBM
Form: double-stranded DNA, one strand shown
Matrix: in vitro
Tested at: not given
Notes: 8-mer, flanks averaged, mean of replicates
Reading: higher = stronger binding
Measurement: E-score
ACCTACAG: -0.0726
AACGTGAC: -0.129
ACGATTTG: 0.016
ACGATTCC: 0.0631
GCTTGGCA: -0.107

Other studies, line by line
IRF5 K96S/S451D/S453D/S456D/S462D full length, phosphomimetic: Interferon regulatory factor 5, full length, phosphomimetic (IRF5, Homo sapiens, UniProt Q13568-2, residues 1-514, K96S/S451D/S453D/S456D/S462D)
GCCTAGCACTTAGGTATCGGGTTTCGGTGAGTGCTAGTCTTGATTCGCTTGACGCTGCTG
log fluorescence (Interferon regulatory factor 7, full length, phosphomimetic (IRF7, Homo sapiens, UniProt Q92985, residues 1-503, S101K/S471D/S472D/S475D/S476D/S477D/S483D/S484D/S487D); protein-binding microarray; double-stranded DNA, one strand shown, in vitro; 250 nM, 60-bp whole probe, with: salmon DNA 0.4 mg/ml; reference: random background probes, higher = stronger binding): 2.61 z-score

PhoQ, residues 284 288 289 292 302 303 MLMVEA
fold induction (PhoP, residues 12 14 15 18 19 LHSVW (Escherichia coli, UniProt P23836); Sort-seq, item: YFP reporter; E. coli; PhoQ-PhoP variant library, with: 10 µM Mg2+; reference: high Mg2+ state, higher = stronger signaling): 3.63

GCCTAGCACTTAGGACTGGACTTTCGGATAGTGCTAGTCTTGATTCGCTTGACGCTGCTG
log fluorescence (IRF5 K96S/S451D/S453D/S456D/S462D full length, phosphomimetic; protein-binding microarray; double-stranded DNA, one strand shown, in vitro; 250 nM, 60-bp whole probe, with: salmon DNA 0.4 mg/ml; reference: random background probes, higher = stronger binding): 5.22 z-score

GCCTAGCACTTAGGACTGGGGTTCCGGTTAGTGCTAGTCTTGATTCGCTTGACGCTGCTG
fitted relative affinity (Interferon regulatory factor 5, full length, phosphomimetic (IRF5, Homo sapiens, UniProt Q13568-2, residues 1-514, S451D/S453D/S456D/S462D); protein-binding microarray; double-stranded DNA, one strand shown, in vitro; 940 nM top, 60-bp whole probe, with: salmon DNA 0.4 mg/ml; reference: random background probes, higher = stronger binding): 0.317 z-score

GCCTAGCACTTAGTTATCGGACTGGGTTAGTGCTAGGTCTTGATTCGCTTGACGCTGCTG
log fluorescence (IRF5 K96S/S451D/S453D/S456D/S462D full length, phosphomimetic; protein-binding microarray; double-stranded DNA, one strand shown, in vitro; 250 nM, 60-bp whole probe, with: salmon DNA 0.4 mg/ml; reference: random background probes, higher = stronger binding): 1.37 z-score
